Published values pooled from the literature.
Numbered parts are unrelated; each lists some results of a single study. “And” joins repeats or separate records; there may be more than shown. Substitutions count along the parent as printed.

Study 1
Partner: ARF8 699-811 (Arabidopsis thaliana, UniProt Q9FGV1)
Technique: two-hybrid
Reference: out of 4 tests
Reading: higher = firmer interaction
Endpoint: positive tests
B1: ARF6 790-935 (Arabidopsis thaliana, UniProt Q9ZTX8); chain SENPQSNTFVKVYKSGSFGRSLDISKFSSYHELRSELARMFGLEGQLEDPVRSGWQLVFVDRENDVLLLGDDPWPEFVSSVWCIKILSPQEVQQMGKRGLELLNSAPSSNNVDKLPSNGNCDDFGNRSDPRNLGNGIASVGGSFNY
B2: ARF1 538-665 (Arabidopsis thaliana, UniProt Q8L7G0); chain SRQIRSCTKVHMQGSAVGRAIDLTRSECYEDLFKKLEEMFDIKGELLESTKKWQVVYTDDEDDMMMVGDDPWNEFCGMVRKIFIYTPEEVKKLSPKNKLAVNARMQLKADAEENGNTEGRSSSMAGSR
B3: ARF2 727-859 (Arabidopsis thaliana, UniProt Q94JM3); chain TKTNSSRSCTKVHKQGIALGRSVDLSKFQNYEELVAELDRLFEFNGELMAPKKDWLIVYTDEENDMMLVGDDPWQEFCCMVRKIFIYTKEEVRKMNPGTLSCRSEEEAVVGEGSDAKDAKSASNPSLSSAGNS
B4: IAA32 (Arabidopsis thaliana, UniProt Q8RYC6); chain MDPNTPADFFKGSSKFHTYYSQTKKGGGVIDLGLSLRTIQHETYLPPARMIGLDGYGELIDWSQPSYNSITQLKSEDTGHQRLAQGYYNNEGESRGKYAYVKVNLDGLVVGRKVCLVDQGAYATLALQLNDMFGMQTVSGLRLFQTESEFSLVYRDREGIWRNVGDVPWKEFVESVDRMRIARRNDALLPF
B5: ARF4 660-788 (Arabidopsis thaliana, UniProt Q9ZTX9); chain QSSSKRICTKVHKQGSQVGRAIDLSRLNGYDDLLMELERLFNMEGLLRDPEKGWRILYTDSENDMMVVGDDPWHDFCNVVWKIHLYTKEEVENANDDNKSCLEQAALMMEASKSSSVSQPDSSPTITRV
B6: ARF7 1030-1164 (Arabidopsis thaliana, UniProt P93022); chain PAQTQRMRTYTKVQKRGSVGRSIDVNRYRGYDELRHDLARMFGIEGQLEDPQTSDWKLVYVDHENDILLVGDDPWEEFVNCVQSIKILSSAEVQQMSLDGNFAGVPVTNQACSGGDSGNAWRGHYDDNSATSFNR
Construct (chain): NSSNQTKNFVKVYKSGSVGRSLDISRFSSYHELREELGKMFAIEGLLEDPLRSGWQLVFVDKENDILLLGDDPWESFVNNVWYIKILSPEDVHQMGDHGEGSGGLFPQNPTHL
B1 (ARF6 790-935): 0
B2 (ARF1 538-665): 1
B3 (ARF2 727-859): 0
B4 (IAA32): 4
B5 (ARF4 660-788): 0
B6 (ARF7 1030-1164): 0

Study 2
Target: MAFF, bZIP domain (human)
Technique: DHFR protein complementation
Sample: yeast
Setting: single substitutions, most at no-binding floor
Reference: wild-type JUN-FOS pair
Reading: higher = stronger binding
Endpoint: binding fitness
Starting sequence: JUN, bZIP domain (human); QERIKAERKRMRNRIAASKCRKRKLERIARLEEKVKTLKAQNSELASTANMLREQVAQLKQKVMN; partner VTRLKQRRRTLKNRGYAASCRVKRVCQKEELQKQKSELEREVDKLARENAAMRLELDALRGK
E33R: -1.43 natural log
N42I: -1.31 natural log
R30A: -1.25 natural log
L38A: -1.41 natural log
K39Y: -1.53 natural log
S47M: -1.35 natural log
L52P: -1.49 natural log
V56W: -1.48 natural log

Further values, each from its own experiment
Host: human
CC(=O)C1=C(C)N(c2cccc(C(F)(F)F)c2)C(=O)N[C@H]1c1ccc(C#N)nc1
viability (normal-adjacent epithelial organoid; cell viability, CellTiter-Glo; patient-derived organoid; 1 µM; reference: DMSO): 109% and 108%

CN1C(=O)c2cccc3c2C1=Cc1ccc2ccccc2c1O3
remaining compound (microsomes or S9; 2 µM, 0.5 h): 104%

Excerpt of the above (study 2):
K39Y: -1.53 natural log
S47M: -1.35 natural log
L52P: -1.49 natural log
